Published values pooled from the literature.
Each numbered part is a random draw from the data of one study; scales do not carry over between parts.

Set 1
Target: RNA binding protein fox-1 homolog 2, RRM domain, GST-SBP tag (RBFOX2, Homo sapiens, UniProt O43251-10, residues 100-194)
Method: RNA Bind-n-Seq
Molecule type: RNA
Medium: in vitro
Tested at: 365 nM
Setting: natural RNA segment, single round, ends assumed
Baseline: no-protein control
Reading: higher = stronger binding
Shared flanks, not repeated: GGGAGUUCUACAGUCCGACGAUC … UGGAAUUCUCGGGUGCCAA
Residues (chain): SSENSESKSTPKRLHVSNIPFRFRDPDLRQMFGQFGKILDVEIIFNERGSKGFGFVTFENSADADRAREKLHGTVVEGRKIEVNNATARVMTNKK
Strand	RBNS enrichment (R)
UGUGUCCGUGGAACCAGUCCUAGCCGCGUGUGACAGUCUUGCAUUCUGUUUGUCUCGUGGGGGGAGGUGGACAGUCCUGCGGAAAUGUGUCUUGUCUCCAUUUGGAUAAA	1.73
UAUACAUGGAUAUUCAAUUUUGAUGGCUUCCAGAUUUGUAAGAUUGUAUGUUGUAUAUACCAUUCUAUUAAGAAACAUGUCCACUGUGCUUUCAAACAUAGAUAAAGCAU	0.299
UUCGUUCAAAAUCCAAAUAAUAACAGAUACAAAGAUAACAAAAGCUUUACAAGCUGACUUGGAAUUGUGUGCUGCUUGCUGUUAGCUAGGGGAAAGGCCCUGCCAAUGUU	0.757
UUGCACUGAGCUUGCCAGUGGUGACUGCCAGGAACGCCUAGGAUCCACUUUGGUGGCUGUUGUUGCAGAAGACUAAACUGCUUUGGACUAUUUAACGAUUGCCUGACAGU	0.331
AACUAGUUCCUCUCUUUUUUUCUGCCAAGUCCUGAAUUGAAAACUGUAGGCUUCCUUGCACAGAUGUUGCAGCCAGCCUCAGGAGUAAAGUGCCCGCUGACUGCUGCCGC	0.457
UGUAAAAAUUUGUGGGGAGUAGGCUCCAGGAAGAGCCAGCAUCCCUGCCCCCGUUUCCCACCGGGGACCUGUACAGAGAUUUUUUUCUACAUUUUUAUUUUUUGUCUCAG	0.47
CAUUCCUGCCUUUCCUGGGAAGGGCCUGGCCCUGAUCUAGAGUCUUAGCUAAGGAGCUGAGAAACAGCCACAGUACUCCCUUCUCUUCGCGCACAGGGCCCUCUCUCUUA	0.334
AUGUAGGACCAGGAGUAUCUCCUCAGGUGACCAGUUUUGGGGACCCGUAUGUGGCAAAUUCUAAGCUGCCAUAUUGAACAUCAUCCCACUGGGAGUGGUUAUGUUGUAUC	0.336
UAUUUUAAAAUGUAAUGUUACUUAUGAAAAGUAUUUUGCUUAAGGUUGUGUGUGUAUUGUGUAUAUACCUCAAGUUCAAGUUAAUGGCAUUGAUUUAUGUUCCAGACAAA	0.421
CUCUUUGGCUUAGAAGGCACUCAGAGAAUAUGUGUUAUUCGUGCUCACGGAAAGUUUCUUACUCAUCCCUGUGACUUUGGCUUUAUUUUACAAUAAAACACUGAAAAUGU	0.606
GAAUUUAAUGCUUCCAAAUGUUUGCAGUUACCAAACAUUGUUAUGCAAGAAAUCAUAAAAUGAAGACUUAUACCAUUGUGUUUAAGCUGUAUUGAAUUAUCUGUGGAAUG	0.388
AGCAUUUGACUUCCCCAUCAGUACAUUUGUUCAUUUGCUUUCUCUGUGAAACGCCAUGAUUGUCUAAACAAGUCUCCCCUCUGCCCUGAUCCCUUUGUACCAAGUCAAUG	0.481

Set 2
Target: Phosphate system positive regulatory protein PHO4, full length, GST-tagged (PHO4, Saccharomyces cerevisiae, UniProt P07270, residues 1-312)
Method: competition protein-binding microarray
Molecule type: double-stranded DNA, one strand shown
Medium: in vitro
Tested at: 2 µM
Setting: whole 60-bp probe, lowest competitor level
With: Cbf1 competitor, 0.05 µM
Reading: higher = stronger binding
Shared flanks, not repeated: … GTCTTGATTCGCTTGACGCTGCTG
Construct (chain): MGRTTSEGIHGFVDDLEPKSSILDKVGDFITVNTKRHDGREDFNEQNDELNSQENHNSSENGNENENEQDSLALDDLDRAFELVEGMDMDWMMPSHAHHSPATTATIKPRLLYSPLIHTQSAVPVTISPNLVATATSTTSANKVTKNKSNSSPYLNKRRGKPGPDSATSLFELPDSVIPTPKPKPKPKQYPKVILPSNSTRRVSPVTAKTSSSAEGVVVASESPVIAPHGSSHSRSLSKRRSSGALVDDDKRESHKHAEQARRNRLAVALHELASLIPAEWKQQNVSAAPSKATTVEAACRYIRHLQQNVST
Strand	fluorescence intensity
CATACCCAACCTTGTCACTGCACTTAAGATATTTGT	4080 a.u.
GTATTGTAAGACTGTCATGTGATTGCTGTCGCGTTC	6950 a.u.
CGTCCTAGCGATTGAGAGGTGGGTGCCATGAGGAAG	6650 a.u.
AAAGCGGTAATTTGAAACGTGGGTGCAGATATCTAT	14000 a.u.
TAAGTTCCAGCTCTTCACGTGCTTTTGCTTCTCTCA	13800 a.u.
CCTTCGAAGAAGTTGTTCGTGCCAGCCACAACGGAG	5870 a.u.
GGTTTGGGTCTTGTTCTCGTGGAGGATCCTTTTGGT	6130 a.u.
TTCATTTGTCACCGTCACGTGATGGCATTTAAGTAC	15600 a.u.
TGTATCCTTTGTAGGCTCGTGCTGTATCAACCTACT	11200 a.u.
ATCCTGAGAAGTTAGCATGTGCTATCGTTGAAGCCA	13400 a.u.
TTATCATATACGGTGTTAGAAGATGACGCAAATGAT	4730 a.u.
TAGGGGCACTCTAACCTCGTGTAACGCGTAACCTTC	9350 a.u.
CGGCAATTGCTGAGCACCGTGCGATGTTATGATCGC	7910 a.u.
GCGGTGAAAAGTGCAAATGTGATGACAGCACCGGAA	3340 a.u.
TTGCGGTATAGGGTCCACGTGATGGGAATAAAAGCA	15700 a.u.
TGAATCTAGACCGTCATCGTGCGGACTCCTAGATCC	8160 a.u.
AAATTACTAAGTTGGGTAGTGGGTGACGCCGTATGA	4080 a.u.
TTCGCCAGTGCTTTGCCCGTGCAAATCGGATGCTGG	6230 a.u.
GGAAGTCCACACCGAAGTGTGACGGCTGAGTCTGTG	4730 a.u.
CGAAAGAGAGGTTGCCACGTTTTCCCGACGGCTGCT	15000 a.u.

Set 3
Target: Ras GTPase-activating protein-binding protein 1, C-terminal RGG region (G3BP1, Homo sapiens, UniProt Q13283)
Chain of UniProt Q13283 (whole entry, looked up): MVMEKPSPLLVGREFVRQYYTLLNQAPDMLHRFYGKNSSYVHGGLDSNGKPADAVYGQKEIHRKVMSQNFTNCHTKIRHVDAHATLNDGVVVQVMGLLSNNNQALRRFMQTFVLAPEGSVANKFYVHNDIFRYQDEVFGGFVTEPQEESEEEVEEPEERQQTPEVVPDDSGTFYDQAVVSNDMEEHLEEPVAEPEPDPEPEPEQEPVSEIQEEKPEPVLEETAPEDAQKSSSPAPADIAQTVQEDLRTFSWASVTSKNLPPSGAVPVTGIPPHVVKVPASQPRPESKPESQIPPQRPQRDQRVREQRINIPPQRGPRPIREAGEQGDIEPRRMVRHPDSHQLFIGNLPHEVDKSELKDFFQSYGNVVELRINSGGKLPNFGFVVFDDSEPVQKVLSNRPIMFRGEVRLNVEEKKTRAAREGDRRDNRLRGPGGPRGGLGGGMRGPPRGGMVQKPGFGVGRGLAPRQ
Method: RNA Bind-n-Seq
Molecule type: RNA
Medium: in vitro
Tested at: 1 µM
Setting: whole 134-nt RNA, ends assumed
With: 150 mM KCl
Baseline: input library
Reading: higher = stronger binding
Shared flanks, not repeated: GGGAGUUCUACAGUCCGACGAUC … UGGAAUUCUCGGGUGUCAAGG
Strand	log2 enrichment
UCAAGUCCUGUGCUACACAUCGUAUGUACCGAAUCGGAAAAAGGUUUUUGGAGGAAAGUAUUAUGUUACGCCGUUCGGAUCUGCACUUCC	-1.33
ACCAUGCAGGUGGGCAUCUUUGGGAAGUGGGGCAAGGGGGGGAUAGGGAGGGGGGUAACACUUUGGGAAAAGGUGGUCCCAGGUCGUUUC	-1.65
GUCCUGUGCUACACAUCGUAUGUACCGAAUCGGAAAAAAGGGGAAAAAAGGAAAAAAGGAAAGUAUUAUGUUACGCCGUUCGGAUCUGCA	-1.47
UCCUGUGCUACACAUCGUAUGUACCGAAUCGGGGUGGGGUUUUUUUGGGGAAAAAGGGGAAAGUAUUAUGUUACGCCGUUCGGAUCUGCA	0.98
CAAGUCCUGUGCUACACAUCGUAUGUACCGAAUCGGGUUUGGGUUUGGGGUUUGGAAAGUAUUAUGUUACGCCGUUCGGAUCUGCACUUC	-0.835
UGGCCCUGGUGGCAUGCGGGGAGGAAGAGCUGGCCUCAUGGAUCGUGGUGGUCCCGGUGGAAUGUUCAGAGGUGGCCGUGGUGGAGACAG	2.38
GCAGGAAGUAAAAACAAAUGGAAAUGCUUCGGAUAAAAGCAGGGGUGGGGGUUGCUAAGGAAAGGGUGGGAUGGGAGUGGGUAAAGAGUU	1.75
CUGUGCUACACAUCGUAUGUACCGAAUCGGGUUUUUUUGGGUUUUUUUGGGUUUUUUUGGGAAAGUAUUAUGUUACGCCGUUCGGAUCUG	-1.2
AAGUCCUGUGCUACACAUCGUAUGUACCGAAUCGGGAAAAGGAAAAGGGAAAAGGGAAAGUAUUAUGUUACGCCGUUCGGAUCUGCACUU	-1.67
CUCAAGUCCUGUGCUACACAUCGUAUGUACCGAAUCGGGUUGGUUGGGGUUGGGAAAGUAUUAUGUUACGCCGUUCGGAUCUGCACUUCC	0.421

Set 4
Target: RING finger protein unkempt homolog, zinc fingers 1-6, GST-SBP tag (UNK, Homo sapiens, UniProt Q9C0B0, residues 30-357)
Method: RNA Bind-n-Seq
Molecule type: RNA
Medium: in vitro
Tested at: not given
Setting: RNA with constant flanks, human-mouse chimeric sites, ends assumed
Baseline: input RNA pool
Reading: higher = stronger binding
Shared flanks, not repeated: GGGAGUUCUACAGUCCGACGAUC … CAACAGAGGAUUGAGCAUCA
Residues (chain): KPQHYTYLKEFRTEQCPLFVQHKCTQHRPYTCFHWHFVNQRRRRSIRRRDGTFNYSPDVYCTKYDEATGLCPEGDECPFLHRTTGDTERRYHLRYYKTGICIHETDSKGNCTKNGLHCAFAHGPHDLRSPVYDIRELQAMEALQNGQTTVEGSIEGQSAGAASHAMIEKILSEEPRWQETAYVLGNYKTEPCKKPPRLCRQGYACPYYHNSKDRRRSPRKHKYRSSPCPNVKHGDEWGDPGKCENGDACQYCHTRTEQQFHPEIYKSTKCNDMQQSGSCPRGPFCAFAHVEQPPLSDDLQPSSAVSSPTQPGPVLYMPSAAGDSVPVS
Strand	bound/input enrichment
CGCUUGGAUGAGGCGGGUGUCACAGAUGAAGUGCUAGAUUCUGCCAUGCAAGCCUUCCUUCUGGAGGUCAUUGUUAAACAUGGGGAGCCAGCCCCUUAUUUAUGUAAUAAAGAUCCUUUU	0.194 ratio
CCCCAAUACCAUUUGCAGGUCUGGAACUGCACUCUCUUUUUUAAAAAACAUGUAUACAUUUUAGGGCUGUAGAUUUAUUUUCCUGGUUUUGUUUUUCUUGCUUAUUCUUUGAGCACAGAA	2.59 ratio
GUGCCCUUCUCGCUGCUGCGGAGCCCGAGCUGGGAACCAUUCCGGGACUGGUACCCUGCACACAGCCGCCUCUUCGAUCAAGCUUUCGGGCUGCCCCGGUUGCCCGAGGAGUGGUCGCAG	0.0613 ratio
CUGAGGAUACCACUGAAGAGACCUUAAAAGAAUCAUUUGAGGGCUCUGUUCGUGCAAAGGAUAGUUAUGAUCGGGAAACUGGUUCUUCCAAAGGGUUUGGUUUUGUAGACUUUAAUAGUG	0.757 ratio
GCGGCAGAAUCAUGGAGGACAUAAUGCAGCUCCCCAAAGCGCGCGUCAACGCCAGCAUGUUACCACAAUUCAUCGACCGGCCCGUGUGCUUCGUGGGGAGGCUGGAAAAGAUUCAUCCCA	0.14 ratio
GAAUCCUACUCAGGCGGUCCCACAACAACCAAGCUCACAGCAGCAGCAUCUUAGUCACAGUAGGGUAGUUUUGGGGCUCUGUGGCCAGGGUUUUAUUCAUGUGCAGGUUUGGAAAAUGUA	0.988 ratio
GGUGGGGUGGUCAUUGCCGUUUGAGCUGCUGAUUUUCUUAUGAAUCAUUCAAAACUCUCGUGUAGGGUUGACAAUGUGGGGGGGUGGGAAAUCUAGCUUAUUCUUUUAUUUUCAAGUCCA	6.69 ratio
AAAGUGAUGACUAUGUUUGUCCAACGACAGGUAUUUUCGGAGAGCAAAGAUGAGAUUGCGUUAGUCCUCUAUGGCACAGAUGGCACUGACAAUCCCCUUGCUGGCAAGGACCAGUAUCAG	0.163 ratio
UCGGAUGCUGUGCUGGGUCACUUUUCAUAUCCAGAUCCUUCACAGUGGACAGAUGAAGAACUGGGAAUCCCUCCUGAUGAUGAAGACUGACACUGUAAACUCUCUGGCACUCUGUACGCA	0.368 ratio
UGUGAACUGUCUCUUGAGAUCUAAAAAAAACAUGAUUUUUCCUGGCACAUAUUCCAAAGCAUAGACUUUGUUGCCUGCUGCUUAUUGUCUAAUUUACAGGGAUAUUUAAUUUUGUCAGGU	0.217 ratio
GAGCCCAGCCGGCAGUUUGUAAAGGACUCCAUUCGGCUGGUUAAAAGAUGCACCAAACCCGACAGAAAAGAAUUCCAGAAGAUUGCCAUGGCUACAGCUAUAGGAUUUGCUAUAAUGGGA	0.349 ratio

Some of these lines once more (set 3):
Strand	log2 enrichment
UCAAGUCCUGUGCUACACAUCGUAUGUACCGAAUCGGAAAAAGGUUUUUGGAGGAAAGUAUUAUGUUACGCCGUUCGGAUCUGCACUUCC	-1.33
ACCAUGCAGGUGGGCAUCUUUGGGAAGUGGGGCAAGGGGGGGAUAGGGAGGGGGGUAACACUUUGGGAAAAGGUGGUCCCAGGUCGUUUC	-1.65
GUCCUGUGCUACACAUCGUAUGUACCGAAUCGGAAAAAAGGGGAAAAAAGGAAAAAAGGAAAGUAUUAUGUUACGCCGUUCGGAUCUGCA	-1.47
UCCUGUGCUACACAUCGUAUGUACCGAAUCGGGGUGGGGUUUUUUUGGGGAAAAAGGGGAAAGUAUUAUGUUACGCCGUUCGGAUCUGCA	0.98
CAAGUCCUGUGCUACACAUCGUAUGUACCGAAUCGGGUUUGGGUUUGGGGUUUGGAAAGUAUUAUGUUACGCCGUUCGGAUCUGCACUUC	-0.835
UGGCCCUGGUGGCAUGCGGGGAGGAAGAGCUGGCCUCAUGGAUCGUGGUGGUCCCGGUGGAAUGUUCAGAGGUGGCCGUGGUGGAGACAG	2.38
